Results of several laboratories.
Every numbered part comes from another study and shows a few of its results, in no order.
UniProt Q16539, sequence (whole entry, looked up): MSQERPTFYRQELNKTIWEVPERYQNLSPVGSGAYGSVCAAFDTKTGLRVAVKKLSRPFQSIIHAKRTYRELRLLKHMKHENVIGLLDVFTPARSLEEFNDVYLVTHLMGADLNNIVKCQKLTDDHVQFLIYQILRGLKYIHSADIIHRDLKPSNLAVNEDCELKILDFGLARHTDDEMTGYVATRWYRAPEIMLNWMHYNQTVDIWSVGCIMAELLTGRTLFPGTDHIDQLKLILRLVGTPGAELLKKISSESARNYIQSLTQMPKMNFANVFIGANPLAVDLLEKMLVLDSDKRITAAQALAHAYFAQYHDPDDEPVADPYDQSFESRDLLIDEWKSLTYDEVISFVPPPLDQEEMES
UniProt Q9UPZ9, sequence (whole entry, looked up): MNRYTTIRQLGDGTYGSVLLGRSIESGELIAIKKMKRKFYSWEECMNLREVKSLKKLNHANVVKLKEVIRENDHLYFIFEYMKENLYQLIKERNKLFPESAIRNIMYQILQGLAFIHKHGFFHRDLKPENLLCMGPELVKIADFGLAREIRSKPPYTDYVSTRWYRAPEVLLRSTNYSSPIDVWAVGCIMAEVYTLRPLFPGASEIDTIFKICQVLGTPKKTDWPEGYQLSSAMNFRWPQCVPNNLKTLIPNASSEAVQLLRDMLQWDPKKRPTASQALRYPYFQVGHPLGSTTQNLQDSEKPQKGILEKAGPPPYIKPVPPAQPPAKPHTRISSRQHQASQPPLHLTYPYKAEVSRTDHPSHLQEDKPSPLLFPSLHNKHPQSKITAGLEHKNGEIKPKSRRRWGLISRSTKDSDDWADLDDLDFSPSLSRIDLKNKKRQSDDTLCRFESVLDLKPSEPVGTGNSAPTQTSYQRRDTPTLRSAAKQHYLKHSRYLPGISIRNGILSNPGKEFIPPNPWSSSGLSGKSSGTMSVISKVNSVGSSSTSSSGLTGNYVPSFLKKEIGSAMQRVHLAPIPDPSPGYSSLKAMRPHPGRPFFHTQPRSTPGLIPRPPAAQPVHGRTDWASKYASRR
UniProt Q9NRP7, sequence (whole entry, looked up): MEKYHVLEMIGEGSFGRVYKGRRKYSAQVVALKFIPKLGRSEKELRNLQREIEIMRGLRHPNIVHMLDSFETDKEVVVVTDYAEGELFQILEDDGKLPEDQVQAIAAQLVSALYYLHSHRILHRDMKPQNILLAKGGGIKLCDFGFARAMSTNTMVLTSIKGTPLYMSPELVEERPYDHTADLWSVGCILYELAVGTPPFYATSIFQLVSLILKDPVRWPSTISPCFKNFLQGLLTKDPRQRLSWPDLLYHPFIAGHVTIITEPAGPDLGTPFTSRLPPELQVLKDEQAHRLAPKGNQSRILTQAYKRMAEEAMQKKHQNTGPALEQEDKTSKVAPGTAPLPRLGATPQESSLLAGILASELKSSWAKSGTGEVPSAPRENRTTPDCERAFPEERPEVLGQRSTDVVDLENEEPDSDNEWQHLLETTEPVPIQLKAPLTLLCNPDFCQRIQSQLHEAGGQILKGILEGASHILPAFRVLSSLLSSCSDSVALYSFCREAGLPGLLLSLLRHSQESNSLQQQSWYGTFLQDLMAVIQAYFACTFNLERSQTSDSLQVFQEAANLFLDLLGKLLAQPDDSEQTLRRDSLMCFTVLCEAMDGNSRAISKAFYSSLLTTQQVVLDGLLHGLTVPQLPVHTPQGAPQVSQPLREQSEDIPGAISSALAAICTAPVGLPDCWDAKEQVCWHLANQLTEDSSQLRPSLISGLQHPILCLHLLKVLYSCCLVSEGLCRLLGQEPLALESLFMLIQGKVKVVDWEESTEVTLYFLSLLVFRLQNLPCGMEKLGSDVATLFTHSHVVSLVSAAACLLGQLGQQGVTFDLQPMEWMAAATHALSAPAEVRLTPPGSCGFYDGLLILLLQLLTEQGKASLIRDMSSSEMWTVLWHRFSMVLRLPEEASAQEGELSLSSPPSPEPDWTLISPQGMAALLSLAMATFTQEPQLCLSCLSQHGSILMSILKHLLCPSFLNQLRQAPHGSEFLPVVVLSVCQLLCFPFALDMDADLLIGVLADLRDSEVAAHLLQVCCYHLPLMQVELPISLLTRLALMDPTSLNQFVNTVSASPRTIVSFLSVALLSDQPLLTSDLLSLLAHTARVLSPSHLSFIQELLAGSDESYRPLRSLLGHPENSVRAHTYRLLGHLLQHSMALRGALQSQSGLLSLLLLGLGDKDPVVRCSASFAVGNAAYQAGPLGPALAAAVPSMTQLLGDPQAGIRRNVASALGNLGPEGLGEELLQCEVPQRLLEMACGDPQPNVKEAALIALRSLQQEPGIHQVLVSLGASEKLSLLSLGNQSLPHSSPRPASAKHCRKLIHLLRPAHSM
UniProt P07948, sequence (whole entry, looked up): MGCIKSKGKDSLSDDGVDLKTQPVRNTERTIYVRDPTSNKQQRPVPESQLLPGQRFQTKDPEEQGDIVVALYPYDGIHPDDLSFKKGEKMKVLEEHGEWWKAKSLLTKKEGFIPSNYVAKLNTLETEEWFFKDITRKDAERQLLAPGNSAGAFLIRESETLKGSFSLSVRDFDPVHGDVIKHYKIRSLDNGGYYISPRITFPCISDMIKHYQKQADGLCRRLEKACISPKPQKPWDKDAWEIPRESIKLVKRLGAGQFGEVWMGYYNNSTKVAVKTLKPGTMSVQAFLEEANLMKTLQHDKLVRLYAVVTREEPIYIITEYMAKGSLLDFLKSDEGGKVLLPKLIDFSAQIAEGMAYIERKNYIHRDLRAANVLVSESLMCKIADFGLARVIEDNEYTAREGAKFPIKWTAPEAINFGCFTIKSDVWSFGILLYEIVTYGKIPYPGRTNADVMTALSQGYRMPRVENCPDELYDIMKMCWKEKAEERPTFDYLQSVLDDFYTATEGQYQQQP
UniProt Q9HAZ1, sequence (whole entry, looked up): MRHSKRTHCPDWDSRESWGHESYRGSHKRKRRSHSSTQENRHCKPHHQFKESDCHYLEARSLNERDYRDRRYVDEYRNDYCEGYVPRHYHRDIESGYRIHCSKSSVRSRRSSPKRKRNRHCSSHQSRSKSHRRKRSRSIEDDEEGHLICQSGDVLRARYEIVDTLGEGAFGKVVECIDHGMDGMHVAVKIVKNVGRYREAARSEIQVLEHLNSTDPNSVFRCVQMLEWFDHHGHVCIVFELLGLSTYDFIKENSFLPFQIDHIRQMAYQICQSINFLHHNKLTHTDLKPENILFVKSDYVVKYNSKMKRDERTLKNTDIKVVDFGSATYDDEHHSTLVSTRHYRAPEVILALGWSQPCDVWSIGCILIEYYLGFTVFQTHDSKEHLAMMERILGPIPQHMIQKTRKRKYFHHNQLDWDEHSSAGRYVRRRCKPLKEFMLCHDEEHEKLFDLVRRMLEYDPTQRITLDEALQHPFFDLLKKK

Sample 1
Structure (SMILES): C=CCc1ccc(O)c(-c2ccc(O)c(CC=C)c2)c1
Effect on: chloride current
Method: whole-cell voltage clamp
Quantity: IC50
ANO1 del476-501: Anoctamin-1 (ANO1, Homo sapiens, UniProt Q5XXA6, del476-501)
UniProt Q5XXA6, sequence (whole entry, unmodified, looked up): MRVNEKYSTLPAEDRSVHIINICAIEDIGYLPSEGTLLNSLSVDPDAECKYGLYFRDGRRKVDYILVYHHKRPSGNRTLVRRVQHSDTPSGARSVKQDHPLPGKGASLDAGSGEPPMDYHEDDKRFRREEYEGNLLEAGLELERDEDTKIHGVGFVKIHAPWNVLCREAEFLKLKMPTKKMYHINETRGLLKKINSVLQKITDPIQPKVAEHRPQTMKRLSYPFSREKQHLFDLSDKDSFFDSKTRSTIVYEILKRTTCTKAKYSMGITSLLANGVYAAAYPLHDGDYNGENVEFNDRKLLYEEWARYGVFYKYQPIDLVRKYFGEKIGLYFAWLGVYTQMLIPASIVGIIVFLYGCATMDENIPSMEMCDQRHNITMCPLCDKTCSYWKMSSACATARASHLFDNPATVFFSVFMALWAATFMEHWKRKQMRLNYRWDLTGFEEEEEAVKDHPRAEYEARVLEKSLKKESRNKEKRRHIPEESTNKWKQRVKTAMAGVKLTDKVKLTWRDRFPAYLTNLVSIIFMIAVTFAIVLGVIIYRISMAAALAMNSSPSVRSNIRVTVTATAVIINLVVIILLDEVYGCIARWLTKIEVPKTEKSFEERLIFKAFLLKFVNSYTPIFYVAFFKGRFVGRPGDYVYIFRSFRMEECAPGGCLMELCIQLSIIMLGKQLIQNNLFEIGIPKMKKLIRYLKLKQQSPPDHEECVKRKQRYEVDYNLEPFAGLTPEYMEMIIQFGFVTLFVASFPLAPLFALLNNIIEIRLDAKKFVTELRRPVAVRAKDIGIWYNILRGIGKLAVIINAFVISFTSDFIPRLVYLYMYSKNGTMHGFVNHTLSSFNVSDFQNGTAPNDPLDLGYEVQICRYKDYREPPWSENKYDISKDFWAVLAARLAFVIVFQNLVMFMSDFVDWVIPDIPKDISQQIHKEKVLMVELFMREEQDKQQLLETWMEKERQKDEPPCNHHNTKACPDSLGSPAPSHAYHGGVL
Anoctamin-1 (ANO1, Homo sapiens, UniProt Q5XXA6, del476-501/F623A); membrane voltage -40 mV: 11.4 µM
Anoctamin-1 (ANO1, Homo sapiens, UniProt Q5XXA6, del476-501/R631I); inhibitor; R605I mutant at 80 mV: 28.9 µM
Anoctamin-1 (ANO1, Homo sapiens, UniProt Q5XXA6, del476-501/R561A); membrane voltage 60 mV: 6.47 µM
Anoctamin-1 (ANO1, Homo sapiens, UniProt Q5XXA6, del476-501/F803A); membrane voltage -100 mV: 27.8 µM
ANO1 del476-501; membrane voltage -40 mV, together with: 300 nM Ca2+: 2.8 µM
Anoctamin-1 (ANO1, Homo sapiens, UniProt Q5XXA6, del476-501/L548A); membrane voltage -100 mV: 9.75 µM
ANO1 del476-501; membrane voltage -60 mV, together with: 300 nM Ca2+: 2.82 µM
Anoctamin-1 (ANO1, Homo sapiens, UniProt Q5XXA6, D383A/del476-501); membrane voltage 20 mV: 4.93 µM

Sample 2
SMILES: CCCCN(CCCC)C(=O)CN1C[C@H](c2cc(OC)c3c(c2)OCO3)[C@@H](C(=O)O)[C@@H]1CC(C)(C)CCC
Effect on: cell-free assay
Method: competition with immobilised ligand
Tested at: 1 µM
Quantity: remaining binding
Tyrosine-protein kinase ABL1, phosphorylated (ABL1, Homo sapiens, UniProt P00519, Y253F): 86.7%
Tyrosine-protein kinase HCK (HCK, Homo sapiens, UniProt P08631): 100%
Protein kinase C iota type (PRKCI, Homo sapiens, UniProt P41743): 100%
Serine/threonine-protein kinase ICK (CILK1, Homo sapiens, UniProt Q9UPZ9): 80.2%
SRSF protein kinase 2 (SRPK2, Homo sapiens, UniProt P78362): 100%
Peripheral plasma membrane protein CASK (CASK, Homo sapiens, UniProt O14936): 70%
Receptor tyrosine-protein kinase erbB-4 (ERBB4, Homo sapiens, UniProt Q15303): 100%
Mitogen-activated protein kinase 14 (MAPK14, Homo sapiens, UniProt Q16539): 100%
Hepatocyte growth factor receptor (MET, Homo sapiens, UniProt P08581, M1250T): 100%
Serine/threonine-protein kinase MRCK alpha (CDC42BPA, Homo sapiens, UniProt Q5VT25): 100%
Tyrosine-protein kinase ZAP-70 (ZAP70, Homo sapiens, UniProt P43403): 70.1%
Mitogen-activated protein kinase 4 (MAPK4, Homo sapiens, UniProt P31152): 100%
Serine/threonine-protein kinase 36 (STK36, Homo sapiens, UniProt Q9NRP7): 100%
Dual specificity protein kinase CLK4 (CLK4, Homo sapiens, UniProt Q9HAZ1): 100%
RAC-beta serine/threonine-protein kinase (AKT2, Homo sapiens, UniProt P31751): 100%

Sample 3
SMILES: Cc1sc(C(=O)NC2COC2)cc1-n1cc(NC(=O)Nc2c(F)cccc2Cl)cn1
Tested at: 10 µM
Quantity: remaining activity
MAP kinase-interacting serine/threonine-protein kinase 2 (MKNK2, Homo sapiens, UniProt Q9HBH9); enzyme activity; reference: untreated control: 79.5%
Serine/threonine-protein kinase MARK2 (MARK2, Homo sapiens, UniProt Q7KZI7); enzyme activity; reference: untreated control: 97.9%
Tyrosine-protein kinase Lyn, isoform B (LYN, Homo sapiens, UniProt P07948); kinase activity, kinase panel profiling: 86.8%
Dual serine/threonine and tyrosine protein kinase (DSTYK, Homo sapiens, UniProt Q6XUX3); enzyme activity; reference: untreated control: 95.7%
Calcium/calmodulin-dependent protein kinase type 1D (CAMK1D, Homo sapiens, UniProt Q8IU85); enzyme activity; reference: untreated control: 104%
Dual specificity tyrosine-phosphorylation-regulated kinase 4 (DYRK4, Homo sapiens, UniProt Q9NR20); enzyme activity; reference: untreated control: 87.3%
Mitogen-activated protein kinase kinase kinase 19 (MAP3K19, Homo sapiens, UniProt Q56UN5); enzyme activity; reference: untreated control: 92.2%
Serine/threonine-protein kinase LATS2 (LATS2, Homo sapiens, UniProt Q9NRM7); enzyme activity, inhibitor: 94.7%
Calcium/calmodulin-dependent protein kinase type IV (CAMK4, Homo sapiens, UniProt Q16566); enzyme activity; reference: untreated control: 96.5%

Sample 4
Target: Calcium/calmodulin-dependent protein kinase type II subunit alpha (CAMK2A, Homo sapiens, UniProt Q9UQM7)
UniProt Q9UQM7, sequence (whole entry, looked up): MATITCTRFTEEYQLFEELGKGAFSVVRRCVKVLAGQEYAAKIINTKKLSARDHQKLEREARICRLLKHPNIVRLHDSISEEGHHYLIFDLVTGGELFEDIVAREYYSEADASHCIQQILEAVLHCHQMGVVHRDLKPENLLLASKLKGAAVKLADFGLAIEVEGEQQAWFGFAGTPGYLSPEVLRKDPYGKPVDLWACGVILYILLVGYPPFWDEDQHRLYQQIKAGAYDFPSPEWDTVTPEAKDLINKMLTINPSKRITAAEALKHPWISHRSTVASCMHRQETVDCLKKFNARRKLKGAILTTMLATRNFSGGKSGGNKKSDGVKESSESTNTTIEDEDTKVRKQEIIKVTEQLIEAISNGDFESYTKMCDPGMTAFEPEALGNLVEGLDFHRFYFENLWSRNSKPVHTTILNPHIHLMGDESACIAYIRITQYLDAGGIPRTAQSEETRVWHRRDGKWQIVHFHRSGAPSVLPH
Effect on: enzyme activity
Mode: inhibitor
Tested at: 10 µM
Quantity: inhibition
CC(C)=CCc1cc(-c2coc3cc(O)cc(O)c3c2=O)cc(O)c1O: -27%
O=C1c2ccccc2C(=O)c2cc(CO)ccc21: -30%
CCN(CC)CCc1nc(-c2ccccc2)no1: 4%
CCC(O)CC: -8%
Clc1ccc(C(Cn2ccnc2)OCc2ccsc2Cl)c(Cl)c1 (centres unmarked): 3%
Nc1nc(Cl)nc2c1ncn2[C@@H]1O[C@H](CO)[C@@H](O)[C@@H]1F: -2%
CCC(=O)OCC(=O)[C@@]1(OC(=O)CC)[C@@H](C)C[C@H]2[C@@H]3CCC4=CC(=O)C=C[C@]4(C)[C@@]3(F)[C@@H](O)C[C@@]21C: 1%
COc1ccc([C@@H]2CC(=O)c3c(O)cc(O[C@@H]4O[C@H](CO[C@@H]5O[C@@H](C)[C@H](O)[C@@H](O)[C@H]5O)[C@@H](O)[C@H](O)[C@H]4O)cc3O2)cc1O: 6%
COc1ccc(C[C@H](N)C(=O)N[C@H]2[C@@H](O)[C@H](n3cnc4c(N(C)C)ncnc43)O[C@@H]2CO)cc1: -5%
O=C(O)CC(O)(CC(=O)OCc1ccc(O[C@@H]2O[C@H](CO)[C@@H](O)[C@H](O)[C@H]2O)cc1)C(=O)O (some centres unmarked): 15%
CC(N)CCCC(C)(C)O (centres unmarked): 1%
CC(C)=CCc1c(-c2ccc(O)cc2O)oc2c3c(cc(O)c2c1=O)OC(C)(C)C=C3: 26%

Excerpt of the above (sample 4):
Nc1nc(Cl)nc2c1ncn2[C@@H]1O[C@H](CO)[C@@H](O)[C@@H]1F: -2%
CCC(=O)OCC(=O)[C@@]1(OC(=O)CC)[C@@H](C)C[C@H]2[C@@H]3CCC4=CC(=O)C=C[C@]4(C)[C@@]3(F)[C@@H](O)C[C@@]21C: 1%
COc1ccc([C@@H]2CC(=O)c3c(O)cc(O[C@@H]4O[C@H](CO[C@@H]5O[C@@H](C)[C@H](O)[C@@H](O)[C@H]5O)[C@@H](O)[C@H](O)[C@H]4O)cc3O2)cc1O: 6%
